Measurements collected from several papers.
Parts stem from different laboratories: compare values within a part only.
Sequence of UniProt Q9H4A3 (whole entry, looked up): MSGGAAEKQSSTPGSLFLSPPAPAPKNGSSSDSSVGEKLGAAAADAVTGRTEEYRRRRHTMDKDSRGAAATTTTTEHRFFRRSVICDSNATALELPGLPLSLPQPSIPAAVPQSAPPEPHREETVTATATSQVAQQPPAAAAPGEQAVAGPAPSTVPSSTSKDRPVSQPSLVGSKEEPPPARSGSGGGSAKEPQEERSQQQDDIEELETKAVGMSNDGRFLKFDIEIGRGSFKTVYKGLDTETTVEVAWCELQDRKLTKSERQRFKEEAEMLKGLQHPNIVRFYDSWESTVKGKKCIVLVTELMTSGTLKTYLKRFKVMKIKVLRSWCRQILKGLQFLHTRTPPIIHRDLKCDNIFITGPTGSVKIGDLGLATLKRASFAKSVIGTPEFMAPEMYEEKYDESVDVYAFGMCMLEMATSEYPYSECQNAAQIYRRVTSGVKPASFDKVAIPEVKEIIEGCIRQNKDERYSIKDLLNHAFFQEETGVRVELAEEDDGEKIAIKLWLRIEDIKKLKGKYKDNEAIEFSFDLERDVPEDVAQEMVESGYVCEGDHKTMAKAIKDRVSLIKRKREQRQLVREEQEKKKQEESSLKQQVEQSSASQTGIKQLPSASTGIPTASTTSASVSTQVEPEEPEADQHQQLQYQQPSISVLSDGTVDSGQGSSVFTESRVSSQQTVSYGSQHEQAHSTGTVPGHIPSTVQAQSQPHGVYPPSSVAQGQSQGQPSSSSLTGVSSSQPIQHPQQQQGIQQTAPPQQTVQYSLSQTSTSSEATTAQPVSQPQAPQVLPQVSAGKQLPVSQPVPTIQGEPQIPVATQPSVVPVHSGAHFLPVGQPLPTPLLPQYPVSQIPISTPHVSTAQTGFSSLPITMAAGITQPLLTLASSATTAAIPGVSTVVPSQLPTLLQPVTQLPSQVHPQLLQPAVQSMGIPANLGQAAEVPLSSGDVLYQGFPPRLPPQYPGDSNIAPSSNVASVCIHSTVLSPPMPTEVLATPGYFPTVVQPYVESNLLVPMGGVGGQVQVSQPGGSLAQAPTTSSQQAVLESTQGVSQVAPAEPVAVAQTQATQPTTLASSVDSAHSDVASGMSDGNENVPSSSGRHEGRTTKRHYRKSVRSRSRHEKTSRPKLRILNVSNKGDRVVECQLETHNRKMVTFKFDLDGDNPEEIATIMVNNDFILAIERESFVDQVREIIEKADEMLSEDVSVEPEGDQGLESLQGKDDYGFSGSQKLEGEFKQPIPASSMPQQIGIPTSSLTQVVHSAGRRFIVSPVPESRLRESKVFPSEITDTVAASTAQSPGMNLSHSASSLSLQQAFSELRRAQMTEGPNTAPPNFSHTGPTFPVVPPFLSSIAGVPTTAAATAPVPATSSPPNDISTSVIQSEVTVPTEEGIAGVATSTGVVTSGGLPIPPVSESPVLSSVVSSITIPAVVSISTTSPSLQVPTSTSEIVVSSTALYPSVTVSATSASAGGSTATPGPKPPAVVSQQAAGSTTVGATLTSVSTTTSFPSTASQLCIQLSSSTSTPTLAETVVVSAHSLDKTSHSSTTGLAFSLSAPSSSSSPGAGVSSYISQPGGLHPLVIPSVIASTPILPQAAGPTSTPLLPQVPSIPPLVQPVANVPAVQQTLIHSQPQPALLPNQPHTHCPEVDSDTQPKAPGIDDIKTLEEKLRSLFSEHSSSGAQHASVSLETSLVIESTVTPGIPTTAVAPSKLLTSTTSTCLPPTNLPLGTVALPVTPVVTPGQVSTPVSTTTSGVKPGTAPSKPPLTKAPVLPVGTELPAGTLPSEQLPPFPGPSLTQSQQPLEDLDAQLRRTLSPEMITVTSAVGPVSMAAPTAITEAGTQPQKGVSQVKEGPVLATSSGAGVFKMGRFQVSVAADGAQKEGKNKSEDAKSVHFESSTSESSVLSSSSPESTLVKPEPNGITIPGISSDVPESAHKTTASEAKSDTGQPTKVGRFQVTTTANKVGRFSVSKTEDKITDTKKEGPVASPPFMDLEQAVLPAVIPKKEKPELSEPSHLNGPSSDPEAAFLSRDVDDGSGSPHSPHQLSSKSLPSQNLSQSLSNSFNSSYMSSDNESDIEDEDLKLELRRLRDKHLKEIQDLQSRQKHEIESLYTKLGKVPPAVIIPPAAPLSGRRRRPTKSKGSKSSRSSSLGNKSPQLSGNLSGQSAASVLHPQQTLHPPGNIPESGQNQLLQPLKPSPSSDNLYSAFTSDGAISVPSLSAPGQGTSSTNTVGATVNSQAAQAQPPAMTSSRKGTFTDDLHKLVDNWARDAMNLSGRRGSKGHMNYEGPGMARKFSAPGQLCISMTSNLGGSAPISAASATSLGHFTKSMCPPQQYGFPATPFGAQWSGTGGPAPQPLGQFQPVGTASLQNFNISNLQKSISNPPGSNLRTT

Set 1 — technique: DNA-protein interaction ELISA; form: double-stranded DNA, one strand shown; matrix: in vitro, bacterial lysate; concentration: not given; setting: whole dsDNA probe, crude lysate protein; relative to: highest signal in screen; reading: higher = stronger binding
Target: Probable WRKY transcription factor 33, N-terminal DNA-binding domain (WRKY33, Arabidopsis thaliana, UniProt Q8S8P5, residues 169-264)
Sequence of UniProt Q8S8P5 (169-264, looked up): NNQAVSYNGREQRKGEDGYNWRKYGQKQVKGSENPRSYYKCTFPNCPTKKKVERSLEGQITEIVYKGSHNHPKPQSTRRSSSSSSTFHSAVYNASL
Sequence | relative absorbance
AAAAAATCTATTCCATTTCGCCTTCTAAAA | 20.9 % of maximum
AAAAAAATCAGCCTGACTCTGGGCGTAAAA | 23.5 % of maximum
AAAAAATGGTACTCAGAGTTATAGACAAAA | 22.8 % of maximum
AAAAAATTTCTATTTCATCTTTGCCCAAAA | 63.6 % of maximum
AAAAAAATTTTTAGTTTTAATTTTGGAAAA | 30.4 % of maximum
AAAAAAGTCTGCGTCCTACCCCATTCAAAA | 40.4 % of maximum
AAAAAATCCTATCTTGGCTTTGGCCTAAAA | 22.9 % of maximum
AAAAAATTAGACGCTACACTTACGGTAAAA | 20.5 % of maximum

Set 2 — technique: two-hybrid; relative to: out of 4 tests; reading: higher = firmer interaction
Partner: ARF18 482-602 (Arabidopsis thaliana, UniProt Q9C5W9)
B1: IAA17 (Arabidopsis thaliana, UniProt P93830); chain MMGSVELNLRETELCLGLPGGDTVAPVTGNKRGFSETVDLKLNLNNEPANKEGSTTHDVVTFDSKEKSACPKDPAKPPAKAQVVGWPPVRSYRKNVMVSCQKSSGGPEAAAFVKVSMDGAPYLRKIDLRMYKSYDELSNALSNMFSSFTMGKHGGEEGMIDFMNERKLMDLVNSWDYVPSYEDKDGDWMLVGDVPWPMFVDTCKRLRLMKGSDAIGLAPRAMEKCKSRA
B2: ARF1 538-665 (Arabidopsis thaliana, UniProt Q8L7G0); chain SRQIRSCTKVHMQGSAVGRAIDLTRSECYEDLFKKLEEMFDIKGELLESTKKWQVVYTDDEDDMMMVGDDPWNEFCGMVRKIFIYTPEEVKKLSPKNKLAVNARMQLKADAEENGNTEGRSSSMAGSR
B3: IAA27 (Arabidopsis thaliana, UniProt Q9ZSY8); chain MSVSVAAEHDYIGLSEFPTMEATTMSDKTKTRDNNNGLNFKATELRLGLPGSESPERVDSRFLALNKSSCPVSGAKRVFSDAINDSNKWVFSPGSTTATGDVGSGSGPRTSVVKDGKSTTFTKPAVPVKEKKSSATAPASKAQVVGWPPIRSFRKNSMASSQSQKPGNNSETEEAEAKSGPEQPCLYVKVSMEGAPYLRKIDLKTYKSYLELSSALEKMFSCFTIGQFGSHGGCGRDGLNESRLTDLLRGSEYVVTYEDKDSDWMLVGDVPWEMFICSCKKLRIMKSSEAIGLAPRVMEKCRSRN
B4: ARF12 500-593 (Arabidopsis thaliana, UniProt Q9XID4); chain TEIQNKQFSSSRTCTKVQMQGVTIGRAVDLSVLNGYDQLILELEKLFDIKGQLQTRNQWEIAFTDSDEDKMLVGDDPWPEFCNMVKKIFIQKRR
B5: ARF10 575-693 (Arabidopsis thaliana, UniProt Q9SKN5); chain LQGLETGHCKVFMESEDVGRTLDLSVIGSYQELYRKLAEMFHIEERSDLLTHVVYRDANGVIKRIGDEPFSDFMKATKRLTIKMDIGGDNVRKTWITGIRTGENGIDASTKTGPLSIFA
B6: IAA18 (Arabidopsis thaliana, UniProt O24408); chain MEGYSRNGEISPKLLDLMIPQERRNWFHDEKNSVFKTEEKKLELKLGPPGEEDDDESMIRHMKKEPKDKSILSLAGKYFSPSSTKTTSHKRTAPGPVVGWPPVRSFRKNLASGSSSKLGNDSTTSNGVTLKNQKCDAAAKTTEPKRQGGMFVKINMYGVPIGRKVDLSAHNSYEQLSFTVDKLFRGLLAAQRDFPSSIEDEKPITGLLDGNGEYTLTYEDNEGDKMLVGDVPWQMFVSSVKRLRVIKTSEISSALTYGNGKQEKMRR
B7: ARF7 1030-1164 (Arabidopsis thaliana, UniProt P93022); chain PAQTQRMRTYTKVQKRGSVGRSIDVNRYRGYDELRHDLARMFGIEGQLEDPQTSDWKLVYVDHENDILLVGDDPWEEFVNCVQSIKILSSAEVQQMSLDGNFAGVPVTNQACSGGDSGNAWRGHYDDNSATSFNR
B8: ARF6 790-935 (Arabidopsis thaliana, UniProt Q9ZTX8); chain SENPQSNTFVKVYKSGSFGRSLDISKFSSYHELRSELARMFGLEGQLEDPVRSGWQLVFVDRENDVLLLGDDPWPEFVSSVWCIKILSPQEVQQMGKRGLELLNSAPSSNNVDKLPSNGNCDDFGNRSDPRNLGNGIASVGGSFNY
Target sequence (chain): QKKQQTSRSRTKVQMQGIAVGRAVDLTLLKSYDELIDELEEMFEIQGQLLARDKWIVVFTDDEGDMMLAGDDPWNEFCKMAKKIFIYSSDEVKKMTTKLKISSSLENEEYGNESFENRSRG
Sequence | positive tests
B1 (IAA17) | 0
B2 (ARF1 538-665) | 0
B3 (IAA27) | 1
B4 (ARF12 500-593) | 2
B5 (ARF10 575-693) | 0
B6 (IAA18) | 0
B7 (ARF7 1030-1164) | 0
B8 (ARF6 790-935) | 2

Set 3 — technique: RNA Bind-n-Seq; form: RNA; matrix: in vitro; concentration: 365 nM; relative to: no-protein control; reading: higher = stronger binding
Target: RNA binding protein fox-1 homolog 2, RRM domain, GST-SBP tag (RBFOX2, Homo sapiens, UniProt O43251-10, residues 100-194)
Setting: natural RNA segment, single round, ends assumed
Residues (chain): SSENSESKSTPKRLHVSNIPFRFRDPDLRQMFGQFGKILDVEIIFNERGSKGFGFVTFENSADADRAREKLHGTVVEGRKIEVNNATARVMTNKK
Sequence | RBNS enrichment (R)
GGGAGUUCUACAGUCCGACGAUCGACUAGAACUUAACGGAACAAGUCUAGGACAGAAGUUAAGAUCUGAUUAUUUACUUUGUUUAUUGUCUAUAUGCCUUUUAAAAAAAUAAACUUGUUAUGCAAAAUAAAACUGGAAUUCUCGGGUGCCAA | 0.856
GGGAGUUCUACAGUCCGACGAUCACUCUUCCGUUUCUUCUAACCUGCUGUUUCUGUUCUGACAGCGGCUCCUUUGUAAGCUUCAGGCCACACCCACCCCCUCAGUCCAUAUCUGCACUUGCUCAUAGGCCGGUUGGAAUUCUCGGGUGCCAA | 0.39
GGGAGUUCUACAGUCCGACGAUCAACUAUUUAAGAGCCAAUUAAACUAUGAAAUAGUUAUAAAAUUAUUUUUAAUAUUUAAGGCCUUGAAAUUAUAUUCCAAGGCAAAUCUAAAUGGGUGUAGUUGUAUAUGCUGGAAUUCUCGGGUGCCAA | 0.483
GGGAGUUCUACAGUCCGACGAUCUGAGAUUUGGGUGGGGACAUAGCCAAACCAUAUCAUUCUACCCCUGGCCCCUCCAAAUCUCAUGUCCUCACUAUUCAAAACCAAUCAUGCCUUCCUAACAGUCCCCCAAAUGGAAUUCUCGGGUGCCAA | 1.01
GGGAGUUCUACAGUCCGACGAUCAAGAAUGCAUUGAUAUUGUGAACAUUUGUGAUACAUGUAUUAAUAAAUAGAGCAAUUAAAAAUGGCUAUGUUGUGGUUUUCUUCUUUGAUUGCGAUGACAAUCUCUGAAUUGGAAUUCUCGGGUGCCAA | 0.362
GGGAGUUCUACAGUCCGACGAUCAUAUUUCUUGUUUGUGAAAUUGAAACCUCUAUAGGCAUCAUAUGCUUCUUGUCUUUAACAAAGUCUUUGUCUUCUAAGAGCAACCCCGCAGUAAACAACAGAGGGGUUGCUGGAAUUCUCGGGUGCCAA | 0.39
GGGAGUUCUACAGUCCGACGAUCUUAUUGGUAAACAAGAUCUUGCCCUCCAAUGAAAUGACUUACAUGUUUUAAAAAACCGAGUUGGUUUUAUUGAAUUUAAAAAGAUAGGUAACUAAGUAGCAUUUAAAAUCUGGAAUUCUCGGGUGCCAA | 0.608
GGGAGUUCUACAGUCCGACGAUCGCUACAGUUCCCAGCUGCUGUAACAGAGCCACCUCCACCUCUAACAAUAAACCAAGUUCAUUGCAGAUGGUGUGGUGCUGCCUAGGCUUUCCAAGGCUCCUCCAGACAGUUGGAAUUCUCGGGUGCCAA | 0.218

Mixed results
Compound | target | assay | conditions | quantity | value
O=C(NS(=O)(=O)c1ccc(NCC2CCOCC2)c([N+](=O)[O-])c1)c1ccc(N2CCN(Cc3ccc(C(F)(F)F)cc3-c3ccc(Cl)cc3)CC2)cc1Oc1cnc2[nH]ccc2c1 | Serine/threonine-protein kinase WNK1 (WNK1, Homo sapiens, UniProt Q9H4A3) | cell-free assay, competition with immobilised ligand | 1 µM | remaining binding | 100%
